# Experimental data collected from several papers.
# Parts stem from different laboratories: compare values within a part only. Substitutions count along the parent as printed.

# Block 1 — method: universal PBM; form: double-stranded DNA, one strand shown; matrix: in vitro; concentration: 600 nM; reading: higher = stronger binding
# Target: Sal-like protein 4, full length isoform A (SALL4, Homo sapiens, UniProt Q9UJQ4, residues 1-1053)
# Chain of UniProt Q9UJQ4 (whole entry, looked up): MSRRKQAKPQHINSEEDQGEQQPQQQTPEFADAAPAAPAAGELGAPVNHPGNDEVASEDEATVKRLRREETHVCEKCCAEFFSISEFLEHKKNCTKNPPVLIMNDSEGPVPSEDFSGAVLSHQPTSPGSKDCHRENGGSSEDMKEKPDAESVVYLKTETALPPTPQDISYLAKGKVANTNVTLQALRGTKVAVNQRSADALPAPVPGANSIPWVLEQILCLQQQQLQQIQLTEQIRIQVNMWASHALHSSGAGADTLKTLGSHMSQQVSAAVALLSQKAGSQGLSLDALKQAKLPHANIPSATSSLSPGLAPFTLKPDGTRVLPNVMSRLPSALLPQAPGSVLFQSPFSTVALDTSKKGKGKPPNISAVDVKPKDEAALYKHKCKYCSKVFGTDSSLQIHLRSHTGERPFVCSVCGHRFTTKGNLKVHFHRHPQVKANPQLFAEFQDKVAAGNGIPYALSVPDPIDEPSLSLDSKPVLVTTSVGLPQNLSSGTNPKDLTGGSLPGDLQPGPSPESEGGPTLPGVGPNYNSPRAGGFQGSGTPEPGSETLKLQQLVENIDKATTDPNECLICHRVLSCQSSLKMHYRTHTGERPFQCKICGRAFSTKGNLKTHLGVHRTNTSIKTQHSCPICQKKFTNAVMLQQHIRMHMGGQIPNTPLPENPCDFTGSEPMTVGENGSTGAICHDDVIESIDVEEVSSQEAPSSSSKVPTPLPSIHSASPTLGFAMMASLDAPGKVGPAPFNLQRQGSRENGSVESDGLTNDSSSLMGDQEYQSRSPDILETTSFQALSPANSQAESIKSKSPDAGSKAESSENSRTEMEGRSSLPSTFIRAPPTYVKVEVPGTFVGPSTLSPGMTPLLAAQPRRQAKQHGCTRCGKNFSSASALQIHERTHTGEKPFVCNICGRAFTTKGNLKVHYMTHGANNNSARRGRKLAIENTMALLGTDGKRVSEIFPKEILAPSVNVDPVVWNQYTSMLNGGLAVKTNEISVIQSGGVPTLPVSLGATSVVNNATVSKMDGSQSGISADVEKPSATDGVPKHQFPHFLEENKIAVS
# Notes: 8-mer, flanks averaged, mean of replicates
Sequence,E-score
CAGGGAAG,-0.28
TATGAGAA,0.307
TCAACCAA,0.129
GCCCGTCC,-0.344
ATTGCTCA,0.133
TCCCTCAA,-0.0796
AGCACAAG,-0.0229
ACTCAAAT,0.254
TAGCTTCA,0.0246
ATACCGAA,0.223
ATGCCCCC,-0.253
AGGTCTCC,-0.139
GCTTTAAC,0.0301
CCGTCGAG,-0.163
ATTCGCTG,-0.0271
ATCTCGGA,-0.0534
ATATCGAC,0.269
ACTTGACG,-0.048
TGGGACAA,-0.0218

# Block 2 — method: RNA Bind-n-Seq; form: RNA; matrix: in vitro; concentration: not given; relative to: input RNA pool; reading: higher = stronger binding
# Target: RING finger protein unkempt homolog, zinc fingers 1-6, GST-SBP tag (UNK, Homo sapiens, UniProt Q9C0B0, residues 30-357)
# Notes: RNA with constant flanks, human and mouse sites, ends assumed
# Residues (chain): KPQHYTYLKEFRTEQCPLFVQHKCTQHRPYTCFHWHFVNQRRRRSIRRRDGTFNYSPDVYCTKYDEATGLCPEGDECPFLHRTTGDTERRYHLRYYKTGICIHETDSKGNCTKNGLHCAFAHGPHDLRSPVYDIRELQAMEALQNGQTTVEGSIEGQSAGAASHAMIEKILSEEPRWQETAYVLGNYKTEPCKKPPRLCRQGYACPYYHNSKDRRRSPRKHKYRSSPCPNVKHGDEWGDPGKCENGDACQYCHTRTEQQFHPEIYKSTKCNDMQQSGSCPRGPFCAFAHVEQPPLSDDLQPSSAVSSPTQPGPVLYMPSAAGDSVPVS
Sequence,bound/input enrichment [ratio]
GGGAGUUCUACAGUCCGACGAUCAAGACCAUCACCCUGGAGGUGGAGCCCAGUGACACCAUCGAGAACGUGAAGGCCAAGAUCCAGGAUAAAGAGGGCAUCCCCCCUGACCAGCAGAGGCUGAUCUUUGCCGGCAAGCAGCUGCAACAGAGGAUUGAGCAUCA,0.0848
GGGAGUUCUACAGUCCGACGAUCCGGUACCCAGACAUCCGCAUUGAAGGAGAGAAUUACCUCCCUCAACCAAUAUAUAGACACAUAGCAUCUUUCCUGUCAGUCUUCAAACUAGUAUUAAUAGGCUUAAUAAUUGUUGGCAAGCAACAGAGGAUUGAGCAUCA,50.5
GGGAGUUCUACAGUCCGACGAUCGGAAUAUUCAUUGUGCUGAAUAUUACCCUUGUGUUUGCAGCUGUAUUUAAACUUGAAACAGAUAGAACUGUAUGGCCCUUGAUAAGAAUCUAUCGGGGUGGCUUUCUUCUGAUUGAAUUCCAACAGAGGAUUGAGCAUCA,0.107
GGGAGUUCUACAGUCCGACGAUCAUAUUCUUUGUAAUGGAUGCAGCUGAAAGAAUGUCUAUUCUACAUCAUGAUCGAGAAGUUCGCAAAGAGAAAAUGCUCAGGCAAAUGGAUAAAAUGAAAAGUCCACGAGUGGCUCUUUCACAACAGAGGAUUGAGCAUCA,0.218
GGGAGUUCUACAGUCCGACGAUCUUCAGUACAGAUUCGAUUCAUCUGGCCUCCCCUAACAGGAAUAUUGAUGUUUCAACUACCAUAUCUAAGUUUACAAACACACAGAUUACAGAACAUUACUCUACCUGUAUCAAGCUUUCUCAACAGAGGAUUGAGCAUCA,0.103
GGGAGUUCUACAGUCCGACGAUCAAAUUUGCAUAAUGUCAUAUACAUGUCCUUUGUACUGUUAUUUGUGUACACUUUGCUUUUGAAUUGUUUGAUUUGUUACAUUAAAUUCUAUAUCUUGACAUUUUCUUUCUUUAUGAGCAUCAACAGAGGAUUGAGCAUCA,0.685
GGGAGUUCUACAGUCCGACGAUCGACACAGUGUGUCUCUCUGAUUGGGCUUCUAAAUCAAAAGCCUGAUGUUCGUGUCCCUCUCAUAGGGGGAGCUUUGGACACAGGACCAGUUUGGAAAAGGGUCAGGUAAGGGUUUCCACUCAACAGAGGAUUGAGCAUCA,0.143
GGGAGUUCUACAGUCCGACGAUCAUAUGCCUAUGGCUACUGGACACAUACCCAUAUAAUCCCCCUAUCUGUUUUGUUAAGCCUACUAGUUCAAUGACUAUUAAAACAGGAAAGCAUGUUGAUGCAAAUGGGAAGAUAUAUCUUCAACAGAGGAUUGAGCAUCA,0.1
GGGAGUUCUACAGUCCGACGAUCGAUAAACUUGAAGCAGACAGAUCAUGGGAAAAUAUUCCUGUUACUUUCAAAUCUCCUGUUCCCGUUAACUCUGAUGAUAGUCCUCAACAAACUUCAAGGGCAAAGAGUGCUAAAGGGGUUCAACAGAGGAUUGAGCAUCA,0.239
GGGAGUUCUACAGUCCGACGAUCAAUGUUCUCGAUGCCAAUCUCUGCUUGAAAGGAGAAGACUUGGAUUCUCAGGUUGGAGUAAUAGAUUUUUCCCUCUACCUUAAGGAUGUGCAGGAUCUUGAUGGUGGCAAGGAGCAUGAACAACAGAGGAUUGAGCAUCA,0.421
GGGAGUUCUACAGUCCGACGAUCAUCAGUGUCGGACGCUAACACCACUUUCGCCCCUUCCCCGCCCCACACACCCUGUCUUCCCAUAGGAGCAUUACCCUCUGUUGUCCAUCUGCCAUCAGAUGUCCCCACUGAAGCAUGCAUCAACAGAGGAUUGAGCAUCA,0.488

# Block 3 — target: CCNA2, cyclin fold, Cln2 fusion (human); method: yeast growth competition, sequencing; matrix: yeast; notes: weak parent motif; relative to: not given; reading: higher = stronger binding
# Starting sequence: DBF4 docking peptide (human); DDIVSKLVFDFVE
Change,normalised enrichment score
DDIVSKLVFDFAE [V12A],-0.197
DDAVSKLVFDFVE [I3A],-0.545
DDIVSKLVFDFVA [E13A],-0.366
DDIVSKLVFAFVE [D10A],-0.213
DDIVSALVFDFVE [K6A],-0.626
DDIVSKAVFDFVE [L7A],-0.655
DDIVSKLVFDAVE [F11A],-0.275

# Block 4 — method: RNA Bind-n-Seq; form: RNA; matrix: in vitro; concentration: 365 nM; relative to: no-protein control; reading: higher = stronger binding
# Target: RNA binding protein fox-1 homolog 2, RRM domain, GST-SBP tag (RBFOX2, Homo sapiens, UniProt O43251-10, residues 100-194)
# Notes: natural RNA segment, single round, ends assumed
# Residues (chain): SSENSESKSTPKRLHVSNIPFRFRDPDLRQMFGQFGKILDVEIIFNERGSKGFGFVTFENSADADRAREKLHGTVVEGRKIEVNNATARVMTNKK
Sequence,RBNS enrichment (R)
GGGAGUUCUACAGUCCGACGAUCCACGUGUGUGUGUGUGUGUGUAAAGGCUAUGCAGCCAAAAUACCAUCUGGCCAGACGGGCCCACCCAUGACUGUCUCGUCUCGUUCUUUUCAACCAGGAGGAAUAUGCUGUGGAAUUCUCGGGUGCCAA,0.27
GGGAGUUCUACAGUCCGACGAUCGCUAGAUGCACCAAGCAUGGCCCAAAUUGGUUCUUUUUUAAAUCCCAUGGGGGAAGUGCAGGCUCCUUCCUGUGGUGCCUCUUUAUAGCCUCACCACCAUGCUAACACUGUGGAAUUCUCGGGUGCCAA,1.04
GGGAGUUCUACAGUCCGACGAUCACUUCAGAGUCUUUCAUGCCAGCGUUUGAGCUCCUCUGGGUAAAAUCUUCCCUUUGUUGACUGGCCUUCACAGCCAUGGCUGGUGACAACAGAGGAUCGUUGAGAUUGAGUGGAAUUCUCGGGUGCCAA,0.392
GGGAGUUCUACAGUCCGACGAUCAGGACCACUGCACCACAGGCCUUGUCCAGUGUUCUAUCCCCUCUGAAGAGUCAGGCGAGGCCUGAUGGCUUUUAGGCCUUUCAUUCAACCAAUGUCAUUGUCCAAACAGAUGGAAUUCUCGGGUGCCAA,0.359
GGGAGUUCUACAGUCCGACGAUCUGACUGACAUUCCUCAGUGGUCCUCACAGGUGGUUAUAGGGGGGCUGCCUCUCACCUCCGAGCACUACAUUGUGGCUGUCCCCUGCCCGCCUGCCCGCCUUCUGUCCUGGUGGAAUUCUCGGGUGCCAA,0.516
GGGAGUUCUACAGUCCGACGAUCUGUGGGCUGAAGUUUAGGGGACUGCAGACACAUCUGGGCCCAGUCCUCAGCUGUUCCUUGCUGGUAUACCUCAGAAGUGGAAUGUCAGAGUGGGCUACUAGAGACCUCUGUGGAAUUCUCGGGUGCCAA,0.268
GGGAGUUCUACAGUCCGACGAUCUGCACUUGCAUCUAAACAAAACUGUUGCAGUUUUUACUCUAUUUAUUUUGUUCCCCAUGUUUAUGAAAGUCCUGCACAGUUUCAAAGGCAUGGUAAAUAAUAUAUCAAUGUGGAAUUCUCGGGUGCCAA,2.19
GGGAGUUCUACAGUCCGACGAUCAUGUUGCACUGGUGGCAAUUCAUCAUGGAGCAUAAUAAAAUUAAUUUGACCCAAAUAGAAUAAAAUAUGUGUUUCAUGUGUUUAUUGUUAAGAGAGUAAAAUAGGUUUAAUGGAAUUCUCGGGUGCCAA,0.326
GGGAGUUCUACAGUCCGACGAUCUCUGGCGCCUUCCUCGCCCCGGGCUGAGAGCUGGGUCCCGGGAGAUGGAAGCCUCCCAGGCGCGCGAGGCUUCCCGGGCGCUCUGAGGCUUCUUUCUCCUCGCCCGCUCCUGGAAUUCUCGGGUGCCAA,0.232
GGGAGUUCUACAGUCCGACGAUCUUCAUUCAUGACUGCUAUGUCCUGAGAAAAGUUCCGAUUUCUUUUAACAAAUGUCAUCAUGAUUAAGGAAAUGUCUGGCACUUUAAUGGCAAAUUAAUUGAGAAUGUAUGUGGAAUUCUCGGGUGCCAA,0.976
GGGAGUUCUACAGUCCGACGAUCUGGACUCAGCUGCCUGUGAAUGCUGCUCACACGAGCCAAAUGUAGGACCUCAGGAACAAUGUUGAUAGACCAUUUACAGGACUGUCAAGAAGCAGACUCAAUUCGAGAAUUGGAAUUCUCGGGUGCCAA,0.409
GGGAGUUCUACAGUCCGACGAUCCCCCCAAUCCAUGAACCAAGACCAUUGAAUUCUUGGUUGAGGAAACAAACAUGACCCUAAAUCUUGACUACAGUCAGGAAAGGAAUCAUUUCUAUUUCUCCUCCAUGGGAUGGAAUUCUCGGGUGCCAA,0.246

# Further values, each from its own experiment
Substance,target,test,test system,setting,scale,measurement,result
"PhoQ, residues 284 288 289 292 302 303 ASSHFY","PhoP, residues 12 14 15 18 19 SYFRT (Escherichia coli, UniProt P23836)","Sort-seq, item: YFP reporter",E. coli,"PhoQ-PhoP variant library, together with: 10 µM Mg2+","relative to: high Mg2+ state, higher = stronger signaling",fold induction,1.07

# Excerpt of the above (block 4):
Sequence,RBNS enrichment (R)
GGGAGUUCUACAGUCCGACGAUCAUGUUGCACUGGUGGCAAUUCAUCAUGGAGCAUAAUAAAAUUAAUUUGACCCAAAUAGAAUAAAAUAUGUGUUUCAUGUGUUUAUUGUUAAGAGAGUAAAAUAGGUUUAAUGGAAUUCUCGGGUGCCAA,0.326
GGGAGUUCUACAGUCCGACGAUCUGCACUUGCAUCUAAACAAAACUGUUGCAGUUUUUACUCUAUUUAUUUUGUUCCCCAUGUUUAUGAAAGUCCUGCACAGUUUCAAAGGCAUGGUAAAUAAUAUAUCAAUGUGGAAUUCUCGGGUGCCAA,2.19
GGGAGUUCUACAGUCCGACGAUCACUUCAGAGUCUUUCAUGCCAGCGUUUGAGCUCCUCUGGGUAAAAUCUUCCCUUUGUUGACUGGCCUUCACAGCCAUGGCUGGUGACAACAGAGGAUCGUUGAGAUUGAGUGGAAUUCUCGGGUGCCAA,0.392
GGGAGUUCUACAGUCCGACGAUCUGACUGACAUUCCUCAGUGGUCCUCACAGGUGGUUAUAGGGGGGCUGCCUCUCACCUCCGAGCACUACAUUGUGGCUGUCCCCUGCCCGCCUGCCCGCCUUCUGUCCUGGUGGAAUUCUCGGGUGCCAA,0.516
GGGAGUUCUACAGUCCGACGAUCUGUGGGCUGAAGUUUAGGGGACUGCAGACACAUCUGGGCCCAGUCCUCAGCUGUUCCUUGCUGGUAUACCUCAGAAGUGGAAUGUCAGAGUGGGCUACUAGAGACCUCUGUGGAAUUCUCGGGUGCCAA,0.268
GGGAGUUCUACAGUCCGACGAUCUGGACUCAGCUGCCUGUGAAUGCUGCUCACACGAGCCAAAUGUAGGACCUCAGGAACAAUGUUGAUAGACCAUUUACAGGACUGUCAAGAAGCAGACUCAAUUCGAGAAUUGGAAUUCUCGGGUGCCAA,0.409
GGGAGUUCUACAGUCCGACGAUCUCUGGCGCCUUCCUCGCCCCGGGCUGAGAGCUGGGUCCCGGGAGAUGGAAGCCUCCCAGGCGCGCGAGGCUUCCCGGGCGCUCUGAGGCUUCUUUCUCCUCGCCCGCUCCUGGAAUUCUCGGGUGCCAA,0.232
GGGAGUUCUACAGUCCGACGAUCAGGACCACUGCACCACAGGCCUUGUCCAGUGUUCUAUCCCCUCUGAAGAGUCAGGCGAGGCCUGAUGGCUUUUAGGCCUUUCAUUCAACCAAUGUCAUUGUCCAAACAGAUGGAAUUCUCGGGUGCCAA,0.359
